Published values from different studies.
Compare with care: the assays were run in different laboratories.
Organism: Candida albicans

Structure (SMILES) | effect on | technique | strain | time | MIC
NCCOCCOCCNC(=O)Cc1ccc(Nc2nc(NCc3ccc(F)cc3)nc(NCC3CCCCC3)n2)cc1 | microbial growth | broth dilution | SC5314 | 24 h | 1 µg/mL
COc1ccc(NC(=O)COc2cccc(OCC(C)C)c2)cc1 | – | – | – | – | 4 µg/mL
CC[C@H]1OC(=O)[C@H](C)[C@@H](OC(=O)Cc2c(F)cccc2F)[C@H](C)[C@@H](O[C@@H]2O[C@H](C)C[C@H](N(C)C)[C@H]2O)[C@](C)(OC)C[C@@H](C)C(=O)[C@H](C)[C@@H](O)[C@]1(C)O | microbial growth | – | ATCC90028 | – | > 32 µg/mL
O=C(O[C@@H]1Cc2c(O)cc(O)cc2O[C@@H]1c1cc(O)c(O)c(O)c1)c1cc(O)c(O)c(O)c1 | microbial growth | broth dilution | SC5314 | – | 16 µg/mL
CC[C@H]1OC(=O)[C@H](C)[C@@H](OC(=O)Cc2ccc(N)cc2)[C@H](C)[C@@H](O[C@@H]2O[C@H](C)C[C@H](N(C)C)[C@H]2O)[C@](C)(OC)C[C@@H](C)C(=O)[C@H](C)[C@@H](O)[C@]1(C)O | microbial growth | – | ATCC90028 | – | > 32 µg/mL
COc1ccc(/N=N/C(=S)N2CCCCC2)cc1 | microbial growth | broth dilution | ATCC10231 | 24 h | > 50 µM
COC1=CC(c2ccc[nH]2)=NC1=CNC(C)(C)C.Cl | – | broth microdilution | ATCC 90028 | 24 h | 64 µg/mL
COc1ccc(/N=N/C(=S)N2CCN(C)CC2)cc1 | microbial growth | broth dilution | ATCC10231 | 24 h | > 50 µM
O=C(COP(=O)(O)O)C(O)C(O)C(O)COP(=O)(O)O (stereo not shown) | microbial growth | broth dilution | SC5314 | – | > 128 µg/mL
CC[C@H]1OC(=O)[C@H](C)[C@@H](O[C@H]2C[C@@](C)(OC)[C@@H](O)[C@H](C)O2)[C@H](C)[C@@H](O[C@@H]2O[C@H](C)C[C@H](N(C)C)[C@H]2O)[C@](C)(OC)C[C@@H](C)C(=O)[C@H](C)[C@@H](O)[C@]1(C)O | microbial growth | – | ATCC90028 | – | > 32 µg/mL
N=C(N)NCCC[C@@H]1NC(=O)[C@H](CCCNC(=N)N)NC(=O)[C@H](CCCNC(=N)N)NC(=O)[C@@H](CCCNC(=N)N)NC(=O)[C@H](Cc2ccc3ccccc3c2)NC(=O)[C@H](Cc2ccc3ccccc3c2)NC(=O)[C@H](Cc2ccc3ccccc3c2)NC1=O | – | – | CA3 | – | 16 µg/mL
CC[C@H]1OC(=O)[C@H](C)[C@@H](OC(=O)c2ccc(N)cc2)[C@H](C)[C@@H](O[C@@H]2O[C@H](C)C[C@H](N(C)C)[C@H]2O)[C@](C)(OC)C[C@@H](C)C(=O)[C@H](C)[C@@H](O)[C@]1(C)O | microbial growth | – | ATCC90028 | – | > 32 µg/mL
COC1=CC(c2ccc[nH]2)=NC1=CNC12CC3CC(CC(C3)C1)C2.Cl | – | broth microdilution | ATCC 90028 | 24 h | 8 µg/mL
CCc1cnn2c(NCc3ccc[n+]([O-])c3)cc(N3CCCCC3CCO)nc12 (stereo not shown) | microbial growth | broth dilution | SC5314 | 24 h | > 128 µg/mL
CC[C@H]1OC(=O)[C@H](C)[C@@H](OC(=O)Cc2ccc([N+](=O)[O-])cc2)[C@H](C)[C@@H](O[C@@H]2O[C@H](C)C[C@H](N(C)C)[C@H]2O)[C@](C)(OC)C[C@@H](C)C(=O)[C@H](C)[C@@H](O)[C@]1(C)O | microbial growth | – | ATCC90028 | – | > 32 µg/mL
N=C(N)NCCC[C@@H]1NC(=O)[C@H](CCCNC(=N)N)NC(=O)[C@@H](CCCNC(=N)N)NC(=O)[C@@H](CCCNC(=N)N)NC(=O)[C@@H](C(c2ccccc2)c2ccccc2)NC(=O)[C@H](Cc2c[nH]c3ccccc23)NC(=O)[C@@H](C(c2ccccc2)c2ccccc2)NC1=O | – | – | CA3 | – | 32 µg/mL
CC[C@H]1OC(=O)[C@H](C)[C@@H](OC(=O)Cc2ccccc2[N+](=O)[O-])[C@H](C)[C@@H](O[C@@H]2O[C@H](C)C[C@H](N(C)C)[C@H]2O)[C@](C)(OC)C[C@@H](C)C(=O)[C@H](C)[C@@H](O)[C@]1(C)O | microbial growth | – | ATCC90028 | – | > 32 µg/mL
O=c1c(O)c(-c2ccc(O)c(O)c2)oc2cc(O)c(O)c(O)c12 | microbial growth | broth dilution | SC5314 | 24 h | 16 µg/mL
N=C(N)NCCC[C@@H]1NC(=O)[C@H](CCCNC(=N)N)NC(=O)[C@@H](CCCNC(=N)N)NC(=O)[C@H](C(c2ccccc2)c2ccccc2)NC(=O)[C@H](C(c2ccccc2)c2ccccc2)NC(=O)[C@H](C(c2ccccc2)c2ccccc2)NC(=O)[C@H](CCCNC(=N)N)NC1=O | fungal growth | – | – | – | 8 µg/mL

Repeated from above:
Structure (SMILES) | effect on | technique | strain | time | MIC
CCc1cnn2c(NCc3ccc[n+]([O-])c3)cc(N3CCCCC3CCO)nc12 (stereo not shown) | microbial growth | broth dilution | SC5314 | 24 h | > 128 µg/mL
CC[C@H]1OC(=O)[C@H](C)[C@@H](OC(=O)Cc2ccc([N+](=O)[O-])cc2)[C@H](C)[C@@H](O[C@@H]2O[C@H](C)C[C@H](N(C)C)[C@H]2O)[C@](C)(OC)C[C@@H](C)C(=O)[C@H](C)[C@@H](O)[C@]1(C)O | microbial growth | – | ATCC90028 | – | > 32 µg/mL
N=C(N)NCCC[C@@H]1NC(=O)[C@H](CCCNC(=N)N)NC(=O)[C@@H](CCCNC(=N)N)NC(=O)[C@@H](CCCNC(=N)N)NC(=O)[C@@H](C(c2ccccc2)c2ccccc2)NC(=O)[C@H](Cc2c[nH]c3ccccc23)NC(=O)[C@@H](C(c2ccccc2)c2ccccc2)NC1=O | – | – | CA3 | – | 32 µg/mL
